# Results pooled from the literature.
# Every numbered part comes from another study and shows a few of its results, in no order. Substitutions count along the parent as printed.

# Study 1 — target: CCNA1, cyclin fold, Cln2 fusion (human); method: yeast growth competition, sequencing; medium: yeast; notes: strong parent motif; relative to: not given; reading: higher = stronger binding
# Starting sequence: viral docking peptide; YKVKRRLVFGADD; partner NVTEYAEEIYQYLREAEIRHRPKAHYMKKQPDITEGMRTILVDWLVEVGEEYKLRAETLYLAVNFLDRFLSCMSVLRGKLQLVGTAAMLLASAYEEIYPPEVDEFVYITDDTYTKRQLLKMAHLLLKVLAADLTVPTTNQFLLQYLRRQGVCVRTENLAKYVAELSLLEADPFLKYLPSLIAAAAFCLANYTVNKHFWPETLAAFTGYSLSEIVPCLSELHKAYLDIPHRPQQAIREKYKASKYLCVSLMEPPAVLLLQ
Change,normalised enrichment score
D12M,1.79
L7F,0.414
R5K,1
F9A,-0.0448
R5T,0.218
R5Y,0.0129
K2E,1.43
V8T,1.14
F9L,0.882
K4I,-0.711
V3S,0.89
F9M,0.865
D12Q,1.3
L7C,-0.149
L7H,0.0401
L7I,0.79
F9I,0.504
D12V,1.26
G10H,1.31
R6V,0.875
G10A,0.76
F9V,0.305
L7V,0.0562
L7R,0.415
A11I,1.33

# Study 2 — method: aptamer microarray, sandwich; molecule type: DNA with 2'F-ANA; medium: in vitro; tested at: 200 nM; with: Cy3 exosite-II aptamer, 400 nM; reading: higher = stronger binding; oligonucleotide: GGTTGGTGTGGTTGG
# Target: Prothrombin, mature alpha-thrombin (F2, Homo sapiens, UniProt P00734)
# Notes: whole 15-mer aptamer, many near background
Modification,mean fluorescence intensity
2'F-ANA at 4 5 6 7 8 10 11 12 15,47.7 a.u.
2'F-ANA at 2 3 4 8 9 10 11 12 14,190 a.u.
2'F-ANA at 1 5 6 7 9 10 12 14,42.6 a.u.
2'F-ANA at 2 4 8 9 10 15,99 a.u.
2'F-ANA at 1 5 8 11 12 13 14 15,62.4 a.u.
2'F-ANA at 3 4 5 6 8 9 10 11 12,69.3 a.u.
2'F-ANA at 2 4 5 10 12 13 14 15,47.8 a.u.
2'F-ANA at 4 6 9 12 13 15,288 a.u.

# Study 3 — method: protein-binding microarray; molecule type: hairpin DNA; medium: in vitro; tested at: not given; relative to: not given; reading: higher = stronger binding; constant ends, left off below: GAGGCCAG … CTGGCCTCACACTC
# Target: Protein C-ets-1, full length (ETS1, Homo sapiens, UniProt P14921, residues 1-441)
# Notes: whole hairpin DNA, median over replicate spots
Oligonucleotide,median fluorescence
TAGGAAGTTGCCTCCTGGCAACTTCCTA,2040 a.u.
TCGGAAGTCGCCTCCTGGCGACTTCCGA,3700 a.u.
CCGGACGTTGCCTCCTGGCAACGTCCGG (5mC at 14 30),2350 a.u.
TCGAAAGTTGCCTCCTGGCAACTTTCGA,562 a.u.
TCGGAAGTTGCCTCCTGGCAACTTCCGA (5mC at 30),4950 a.u.
TCGGAACGTGCCTCCTGGCACGTTCCGA,586 a.u.
TCGGAACGTGCCTCCTGGCACGTTCCGA (5mC at 15),599 a.u.
TCGGCGGTTGCCTCCTGGCAACCGCCGA (5mC at 31),593 a.u.

# Study 4 — target: vanadate, free oxyanion; method: microfluidic competitive inhibition; medium: in vitro, cell-free expressed; tested at: not given; reading: lower = stronger binding
# Notes: derived from inhibition constants, unchanged parent 676 nM
# Starting sequence: PafA, mature enzyme, eGFP fusion (Elizabethkingia meningoseptica, UniProt Q9KJX5); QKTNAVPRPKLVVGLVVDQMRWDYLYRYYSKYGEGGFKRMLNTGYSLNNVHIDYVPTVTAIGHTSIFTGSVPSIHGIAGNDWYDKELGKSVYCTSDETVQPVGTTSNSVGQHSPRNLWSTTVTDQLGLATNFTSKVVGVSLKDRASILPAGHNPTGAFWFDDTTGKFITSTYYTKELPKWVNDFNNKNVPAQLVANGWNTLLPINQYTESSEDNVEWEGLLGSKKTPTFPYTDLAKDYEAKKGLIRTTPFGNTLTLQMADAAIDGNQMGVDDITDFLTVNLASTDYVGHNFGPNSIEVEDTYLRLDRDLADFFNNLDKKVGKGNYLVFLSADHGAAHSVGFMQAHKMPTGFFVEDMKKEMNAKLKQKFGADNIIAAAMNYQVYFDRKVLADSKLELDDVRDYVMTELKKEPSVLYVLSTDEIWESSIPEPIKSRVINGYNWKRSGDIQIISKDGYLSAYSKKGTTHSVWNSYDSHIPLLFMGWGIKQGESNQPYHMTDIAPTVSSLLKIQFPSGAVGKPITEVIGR
Change,oxyanion analog dissociation constant
V55G,721 nM
Q510G,713 nM
D446V,934 nM

# Study 5 — method: protein-binding microarray; molecule type: double-stranded DNA, one strand shown; medium: in vitro; tested at: not given; reading: higher = stronger binding
# Target: Protein C-ets-1 (ETS1, Homo sapiens, UniProt P14921, residues 1-441, K379A, full length assumed)
# Notes: k-mer, scored over probes, only values ≥0.25
# Target sequence (chain): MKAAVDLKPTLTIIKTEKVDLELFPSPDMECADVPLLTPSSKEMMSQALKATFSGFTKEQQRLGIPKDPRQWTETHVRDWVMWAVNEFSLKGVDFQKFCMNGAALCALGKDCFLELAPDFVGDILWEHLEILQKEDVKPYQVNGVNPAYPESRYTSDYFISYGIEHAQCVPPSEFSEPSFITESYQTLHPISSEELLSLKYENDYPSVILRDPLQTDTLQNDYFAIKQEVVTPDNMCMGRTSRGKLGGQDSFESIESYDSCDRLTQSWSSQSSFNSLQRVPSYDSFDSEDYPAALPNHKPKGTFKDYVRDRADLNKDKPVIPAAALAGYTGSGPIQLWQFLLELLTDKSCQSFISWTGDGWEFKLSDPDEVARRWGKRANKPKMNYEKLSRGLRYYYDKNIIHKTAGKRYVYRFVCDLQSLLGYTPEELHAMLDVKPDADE
Oligonucleotide,E-score
ATAGTACG,0.276
ACCGGGGC,0.454
CGACACGA,0.355
CCCCTCCA,0.271
ATAATACC,0.357
GCAGGTAA,0.264
CCGGCCGA,0.336
ACATATTC,0.272

# Other studies, line by line — observed: binding; method: phage display NGS; molecule type: peptide; tested at: concentration not given; relative to: input library
# Target: UDP-N-acetylglucosamine--peptide N-acetylglucosaminyltransferase 110 kDa subunit (OGT, Homo sapiens, UniProt O15294)
# Residues used in one study (O15294 1-1046): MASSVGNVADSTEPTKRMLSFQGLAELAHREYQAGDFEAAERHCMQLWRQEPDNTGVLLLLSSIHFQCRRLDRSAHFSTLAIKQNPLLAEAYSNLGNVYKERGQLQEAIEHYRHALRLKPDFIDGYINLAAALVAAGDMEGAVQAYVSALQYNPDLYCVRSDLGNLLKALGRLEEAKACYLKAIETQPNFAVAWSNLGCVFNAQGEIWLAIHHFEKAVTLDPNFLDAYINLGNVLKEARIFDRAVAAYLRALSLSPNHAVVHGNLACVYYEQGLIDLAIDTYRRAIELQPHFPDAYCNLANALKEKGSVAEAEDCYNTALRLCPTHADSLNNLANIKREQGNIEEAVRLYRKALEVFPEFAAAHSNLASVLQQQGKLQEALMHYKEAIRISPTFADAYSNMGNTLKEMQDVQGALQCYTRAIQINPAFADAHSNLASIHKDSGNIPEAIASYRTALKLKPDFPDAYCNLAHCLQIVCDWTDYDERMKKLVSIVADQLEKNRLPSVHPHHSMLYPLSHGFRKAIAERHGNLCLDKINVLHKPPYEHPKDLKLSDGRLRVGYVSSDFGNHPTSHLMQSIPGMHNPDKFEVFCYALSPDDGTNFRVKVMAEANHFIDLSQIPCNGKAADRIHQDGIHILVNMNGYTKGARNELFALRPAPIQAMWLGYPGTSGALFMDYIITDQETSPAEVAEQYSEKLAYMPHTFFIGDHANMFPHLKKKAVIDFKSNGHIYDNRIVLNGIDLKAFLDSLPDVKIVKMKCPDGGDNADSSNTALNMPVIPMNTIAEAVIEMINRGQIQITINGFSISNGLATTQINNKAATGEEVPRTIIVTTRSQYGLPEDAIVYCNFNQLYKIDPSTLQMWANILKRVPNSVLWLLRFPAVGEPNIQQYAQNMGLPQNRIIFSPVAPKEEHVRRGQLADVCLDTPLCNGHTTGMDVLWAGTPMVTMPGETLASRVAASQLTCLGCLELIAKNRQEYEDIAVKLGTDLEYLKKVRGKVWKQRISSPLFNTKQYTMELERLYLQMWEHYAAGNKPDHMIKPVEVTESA
Molecule,enrichment fold change
HREQHDMTYHMIHSR,4.57
HRVQFPWPHDAGHRH,6.86

# Some of these lines once more (study 2):
Modification,mean fluorescence intensity
2'F-ANA at 4 5 6 7 8 10 11 12 15,47.7 a.u.
2'F-ANA at 2 3 4 8 9 10 11 12 14,190 a.u.
2'F-ANA at 1 5 6 7 9 10 12 14,42.6 a.u.
2'F-ANA at 2 4 8 9 10 15,99 a.u.
